Published values pooled from the literature.
Lines come from different studies, so protocols differ. Numbers after ± are the reported error.

| Compound | assay | test system | conditions | scale | quantity | value |
| --- | --- | --- | --- | --- | --- | --- |
| CCCCCCC(CN)C(=O)N[C@H](C(=O)N[C@@H](CN)C(=O)N[C@H]1CCNC(=O)[C@H]([C@@H](C)O)NC(=O)[C@H](CCN)NC(=O)[C@H](CCN)NC(=O)[C@H](CC(C)C)NC(=O)[C@@H](Cc2ccccc2)NC(=O)[C@H](CCN)NC1=O)[C@@H](C)O (stereo partly drawn) | – | CD-1 mouse male, kidney | subcutaneous, 17.2 mg/kg, 4 h | – | tissue concentration | 473000 ng/g |
| CC(C)[C@H](NC(=O)[C@@H]1CCCN1C(=O)[C@H](CCCNC(=N)N)NC(=O)[C@H](CS)NC(=O)[C@H](Cc1c[nH]c2ccccc12)NC(=O)[C@H](CCCNC(=N)N)NC(=O)[C@@H](Cc1ccccc1)NC(=O)[C@H](Cc1c[nH]cn1)NC(=O)[C@H](CCC(=O)O)NC(=O)[C@H](CS)NC(=O)[C@H](CS)NC(=O)COCCOCCNC(=O)[C@@H]1CC(=O)N[C@@H](CCCNC(=N)N)C(=O)NCC(=O)N[C@@H](CC(=O)O)C(=O)N[C@H](Cc2ccc(O)cc2)C(=O)N1)C(N)=O [technetium-99m labelled] | – | nude mouse, M21 melanoma xenograft, tumor | intravenous, 2 h | – | tissue uptake | 1.71 ± 0.25 %ID/g |
| [11CH3]c1ccc2nc(C3CCC3)n(-c3ccc4[nH]ncc4c3)c2n1 | – | ddY mouse, lung | dose not given, 1 min post injection | – | tissue uptake of radioactivity | ≥ 5 %ID/g |
| CC(C)C[C@@H]1NC(=O)[C@@H](Cc2ccccc2)NC(=O)[C@H](CCN)NC(=O)[C@@H](NC(=O)[C@H](CN)NC(=O)[C@@H](NC(=O)C(CCN)CC2CCCCC2)[C@@H](C)O)CCNC(=O)[C@H]([C@@H](C)O)NC(=O)[C@H](CCN)NC(=O)[C@H](CCN)NC1=O (stereo partly drawn) | – | CD-1 mouse male, kidney | subcutaneous, 17.2 mg/kg, 4 h | – | tissue concentration | 430000 ng/g |
| COC(=O)c1ccc(-c2cn(Cc3cc(Cl)ccc3O[11CH3])nn2)cc1 | PET/CT | C57BL/6 mouse, blood | 2 min | – | tissue uptake | 4.28 %ID/cc |
| CCCCCCC(CCN)C(=O)N[C@H](C(=O)N[C@@H](CN)C(=O)N[C@H]1CCNC(=O)[C@H]([C@@H](C)O)NC(=O)[C@H](CCN)NC(=O)[C@H](CCN)NC(=O)[C@H](CC(C)C)NC(=O)[C@@H](Cc2ccccc2)NC(=O)[C@H](CCN)NC1=O)[C@@H](C)O (stereo partly drawn) | – | CD-1 mouse male, kidney | subcutaneous, 17.2 mg/kg, 4 h | – | tissue concentration | 224000 ng/g |
| CN1C(=O)[C@@H](Cc2ccc(O)c(I)c2)NC(=O)CNC(=O)[C@H](Cc2ccc3ccccc3c2)NC(=O)[C@H](CCCNC(=N)N)NC(=O)[C@H]1CCCNC(=O)c1ccc(CNC(=O)CN2CCN(CC(=O)O)CCN(CC(=O)O)CC2)cc1 [fluorine-18 labelled] | – | CB17 SCID mouse, female, Daudi lymphoma xenograft | intravenous, 300 kBq, 1 h | relative to: tumour over liver | tissue ratio | 2 ± 0.3 |
| CCCC[C@H](NC(=O)CN1CCC(NC(=O)CN2CCN(CC(=O)O)CCN(CC(=O)O)CCN(CC(=O)O)CC2)CC1)C(=O)N[C@H]1CC(=O)NCCCC[C@@H](C(N)=O)NC(=O)[C@H](Cc2c[nH]c3ccccc23)NC(=O)[C@H](CCCNC(=N)N)NC(=O)[C@@H](Cc2ccccc2)NC(=O)[C@H](Cc2c[nH]cn2)NC1=O [gallium-68 labelled] | – | C57BL/6J mouse, male, B16-F10 tumour, adrenal glands | 1 h p.i., blocking, added: 100 µg non-radioactive blocking agent | – | tissue uptake | 1.5 ± 1.4 %ID/g |
| O=C(O)CCC(NP(=O)(O)OCCC[C@@H](NC(=O)CC[C@H](NC(=O)CCCCCNC(=O)c1ccc([18F])cc1)C(=O)O)C(=O)O)C(=O)O (stereo partly drawn) | – | mouse, CWR22Rv1 xenograft, heart | dose not given, 4 h, blocking agent pre-dosed | – | tissue uptake | 0.039 ± 0.006 %ID/g |

Some of these lines once more:
| Compound | assay | test system | conditions | scale | quantity | value |
| --- | --- | --- | --- | --- | --- | --- |
| CN1C(=O)[C@@H](Cc2ccc(O)c(I)c2)NC(=O)CNC(=O)[C@H](Cc2ccc3ccccc3c2)NC(=O)[C@H](CCCNC(=N)N)NC(=O)[C@H]1CCCNC(=O)c1ccc(CNC(=O)CN2CCN(CC(=O)O)CCN(CC(=O)O)CC2)cc1 [fluorine-18 labelled] | – | CB17 SCID mouse, female, Daudi lymphoma xenograft | intravenous, 300 kBq, 1 h | relative to: tumour over liver | tissue ratio | 2 ± 0.3 |
